{"data": "Experimental data collected from several papers", "note": "Each line is one published result; not all experiments were run side by side. Several values in a cell are separate wells, animals, samples, runs or records."}
{"Molecule": "Polymyxin B", "tested on": "Pseudomonas aeruginosa", "system": "ATCC 27853", "setting": "250 µg per disc, 24 h, 37 °C", "endpoint": "inhibition zone diameter", "result": "15 mm"}
{"Molecule": "milbemycin oxime", "tested on": "Saccharomyces cerevisiae", "test": "cell growth", "system": "Pdr5 deleted, Cdr1 overexpressed", "setting": "2^-5.966 µg/mL", "endpoint": "OD600", "result": "1.01 and 0.997 and 0.983"}
{"Molecule": "human eIF4A1", "tested on": "PP6C (human)", "test": "co-immunoprecipitation, IP-MS", "system": "CYB5R4 knockout cells", "setting": "concentration not given", "scale": "reference: CYB5R4 knockout over parental", "endpoint": "log2 fold change", "result": 0.52}
{"Molecule": "colistin", "tested on": "Pseudomonas aeruginosa", "test": "broth microdilution", "system": "clinical isolate RKI-No_84/15", "endpoint": "MIC", "result": "1 µg/mL"}
{"Molecule": "CTCATAGACT", "tested on": "Salmonella enterica serovar Typhimurium", "test": "RNA-seq, measured: rimO (SL1344_0828)", "system": "peptide, SL1344", "setting": "5 µM, 15 min", "scale": "reference: water control", "endpoint": "log2 fold change", "result": -2.66}
{"Molecule": "colistin", "tested on": "Pseudomonas aeruginosa", "system": "PA1039 PER-producing isolate", "endpoint": "MIC", "result": "2 µg/mL"}
{"Molecule": "Polymyxin B", "tested on": "Staphylococcus aureus", "test": "DiSC3(5) fluorescence", "setting": "concentration not given, 63 min", "scale": "higher = more depolarisation", "endpoint": "membrane depolarisation", "result": "677 a.u. and 567 a.u. and 502 a.u."}
{"Molecule": "GCCATGCTTT (PNA, CPP-conjugated)", "tested on": "Salmonella enterica serovar Typhimurium", "test": "measured: CFU", "system": "peptide, SL1344, Caenorhabditis elegans infection model, worms", "setting": "2 × MIC, 24 h", "scale": "reference: untreated", "endpoint": "bacterial load reduction", "result": "82.4%"}
{"Molecule": "CTCATTGTCT", "tested on": "Salmonella enterica serovar Typhimurium", "test": "RNA-seq, measured: acnB (SL1344_0159)", "system": "peptide, SL1344", "setting": "5 µM, 15 min", "scale": "reference: water control", "endpoint": "log2 fold change", "result": -2.57}
{"Molecule": "Nisin", "tested on": "Bacillus subtilis", "test": "bacterial cytological profiling", "system": "ATCC 6633", "setting": "concentration not given", "endpoint": "cell width", "result": "0.67 µm and 0.66 µm"}
{"Molecule": "CTGTTACTCT", "tested on": "Salmonella enterica serovar Typhimurium", "test": "RNA-seq, measured: pflA (SL1344_0907)", "system": "peptide, SL1344", "setting": "5 µM, 15 min", "scale": "reference: water control", "endpoint": "log2 fold change", "result": -1.18}
{"Molecule": "TCATCCGCTG (PNA, CPP-conjugated)", "tested on": "Salmonella enterica serovar Typhimurium", "system": "peptide, SL1344", "setting": "10 µM, 8 h", "scale": "reference: initial count", "endpoint": "log reduction", "result": "3.2 log CFU/mL"}
{"Molecule": "CTCAATCTCT", "tested on": "Salmonella enterica serovar Typhimurium", "test": "RNA-seq, measured: nhaA (SL1344_0040)", "system": "peptide, SL1344", "setting": "5 µM, 15 min", "scale": "reference: water control", "endpoint": "log2 fold change", "result": -1.27}
{"Molecule": "cofilin-1, human", "tested on": "PP6C (human)", "test": "co-immunoprecipitation, IP-MS", "system": "CYB5R4 knockout cells", "setting": "concentration not given", "scale": "reference: CYB5R4 knockout over parental", "endpoint": "log2 fold change", "result": -0.23}
{"Molecule": "CTTTCATGCG (PNA, CPP-conjugated)", "tested on": "Salmonella enterica serovar Typhimurium", "system": "peptide, SL1344", "setting": "10 µM, 8 h", "scale": "reference: untreated", "endpoint": "log reduction", "result": "1.68 log CFU/mL"}
{"note": "Some of these lines once more:"}
{"Molecule": "CTCAATCTCT", "tested on": "Salmonella enterica serovar Typhimurium", "test": "RNA-seq, measured: nhaA (SL1344_0040)", "system": "peptide, SL1344", "setting": "5 µM, 15 min", "scale": "reference: water control", "endpoint": "log2 fold change", "result": -1.27}
